Assay results of several laboratories.
Numbered parts are unrelated; each lists some results of a single study. Positions count from the first letter of the parent shown.

Block 1
Target: Ras GTPase-activating protein-binding protein 1, full length (G3BP1, Homo sapiens, UniProt Q13283)
Sequence of UniProt Q13283 (whole entry, looked up): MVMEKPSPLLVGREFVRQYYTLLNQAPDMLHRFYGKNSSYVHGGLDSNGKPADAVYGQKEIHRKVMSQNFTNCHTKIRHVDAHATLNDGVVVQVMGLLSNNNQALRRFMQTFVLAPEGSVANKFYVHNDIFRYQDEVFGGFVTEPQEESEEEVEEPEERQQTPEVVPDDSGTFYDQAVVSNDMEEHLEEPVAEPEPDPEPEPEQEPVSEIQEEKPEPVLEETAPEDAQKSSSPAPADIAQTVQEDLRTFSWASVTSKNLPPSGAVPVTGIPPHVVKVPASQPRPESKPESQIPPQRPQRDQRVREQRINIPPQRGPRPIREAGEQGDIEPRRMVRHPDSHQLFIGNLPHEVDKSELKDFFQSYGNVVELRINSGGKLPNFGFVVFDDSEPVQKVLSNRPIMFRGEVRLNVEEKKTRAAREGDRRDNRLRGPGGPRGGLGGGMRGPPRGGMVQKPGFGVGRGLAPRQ
Method: RNA Bind-n-Seq
Molecule type: RNA
Matrix: in vitro
Concentration: 200 nM
Notes: whole 134-nt RNA, ends assumed
Together with: 150 mM KCl
Relative to: input library
Direction: higher = stronger binding
Quantity: log2 enrichment
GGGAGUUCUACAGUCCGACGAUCGCAGGAAGUAAAAACAAAUGGAAAUGCUUCGGAUAGUGGCAGGGGUGGGGGUUGCUAAGGAAAGGGUGGGGUGGGAGUGGGUAAAGAGUUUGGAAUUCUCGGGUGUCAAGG: 0.395
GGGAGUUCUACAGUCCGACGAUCUCAAGUCCUGUGCUACACAUCGUAUGUACCGAAUCGGGUUGGGUUGGGGUUGGGAAAGUAUUAUGUUACGCCGUUCGGAUCUGCACUUCCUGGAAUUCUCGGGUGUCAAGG: 1.09
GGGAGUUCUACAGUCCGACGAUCUCCUGUGCUACACAUCGUAUGUACCGAAUCAAAGUGUGUGUGUGUGUGUGUGUGUGUAAAAAAGUAUUAUGUUACGCCGUUCGGAUCUGCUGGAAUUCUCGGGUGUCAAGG: 0.894
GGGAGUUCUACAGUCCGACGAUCCUCAAGUCCUGUGCUACACAUCGUAUGUACCGAAUCGGGGUUGGUUGGUUGGGGAAAGUAUUAUGUUACGCCGUUCGGAUCUGCACUUCCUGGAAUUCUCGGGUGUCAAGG: 0.0978
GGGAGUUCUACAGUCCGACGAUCUCCUGUGCUACACAUCGUAUGUACCGAAUCGGGAAAAAAAGGGUUUGGGUUUUUUUGGGAAAGUAUUAUGUUACGCCGUUCGGAUCUGCAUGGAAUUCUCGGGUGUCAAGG: -0.324
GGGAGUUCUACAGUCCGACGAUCCUGUGCUACACAUCGUAUGUACCGAAUCGGGCCCCCCCGGCCCCCCCGGGGCCCCCCCGGGGAAAGUAUUAUGUUACGCCGUUCGGAUCUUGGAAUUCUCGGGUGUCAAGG: -1.07
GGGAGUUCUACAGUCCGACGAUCGUCCUGUGCUACACAUCGUAUGUACCGAAUCGGGUUUUUGGGUUUUUUUGGGUUUGGGAAAGUAUUAUGUUACGCCGUUCGGAUCUGCACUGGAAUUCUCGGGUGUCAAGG: -0.402
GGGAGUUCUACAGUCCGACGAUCCAAGUCCUGUGCUACACAUCGUAUGUACCGAAUCGGGGCCCGGGCCCGGGCCCGGGAAAGUAUUAUGUUACGCCGUUCGGAUCUGCACUUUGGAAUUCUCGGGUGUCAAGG: -1.32
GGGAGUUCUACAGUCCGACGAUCUUUUCUUCUGGGGCAUUUAUCCGUGCUGAUCUUGGUGAAUGGGGCAUGAGUCUAACGAUCAGAGCCCCUAGUGUAGAUUACAGAAACACUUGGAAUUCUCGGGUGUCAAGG: -0.222
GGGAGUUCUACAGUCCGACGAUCAGUCCUGUGCUACACAUCGUAUGUACCGAAUCGGGGAAAAAGGAAAAAGGAAAAAGGGAAAGUAUUAUGUUACGCCGUUCGGAUCUGCACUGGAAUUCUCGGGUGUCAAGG: -0.745
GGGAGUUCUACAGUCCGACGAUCAAGUCCUGUGCUACACAUCGUAUGUACCGAAUCGGGUUUUGGUUUUGGGGUUUUGGGAAAGUAUUAUGUUACGCCGUUCGGAUCUGCACUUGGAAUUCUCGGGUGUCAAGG: -0.626
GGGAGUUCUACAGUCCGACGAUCAAGUCCUGUGCUACACAUCGUAUGUACCGAAUCAAAUUUUUAAACCCAAAUUUAAAAAAGUAUUAUGUUACGCCGUUCGGAUCUGCACUUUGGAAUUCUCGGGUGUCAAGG: -0.769
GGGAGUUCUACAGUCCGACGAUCGUCCUGUGCUACACAUCGUAUGUACCGAAUCGGGGUUUUUGGGGUUUUUGGGUUUUUGGAAAGUAUUAUGUUACGCCGUUCGGAUCUGCAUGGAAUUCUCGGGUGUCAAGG: -0.315
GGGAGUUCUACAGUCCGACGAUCAACUAAUACUCUUAAAUGGUCUUUCAGUAUAGUGGUUCUUACGUAGUUUAACAUAGCUAUAAAUUGAGUUUAACAAUUUAUAAACUCAAGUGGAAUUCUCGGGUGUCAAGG: -1.56

Block 2
Target: Histone acetyltransferase KAT6A, winged helix 1, GST fusion (KAT6A, Homo sapiens, UniProt Q92794, residues 1-85)
Method: protein binding microarray
Molecule type: double-stranded DNA, one strand shown
Matrix: in vitro
Concentration: not given
Notes: 8-mer, flanks averaged, mean of 2 arrays, mostly near background
Relative to: not given
Direction: higher = stronger binding
Quantity: E-score
Construct (chain): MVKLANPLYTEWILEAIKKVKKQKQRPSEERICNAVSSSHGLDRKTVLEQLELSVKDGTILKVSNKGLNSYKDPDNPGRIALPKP
ACTAATTA: -0.147
GTCGAGAA: -0.192
GAATGACA: -0.209
CAACGGGC: 0.2
AACAGAGA: -0.0641
CAATTGAA: -0.0996
ACGTGTAG: -0.0513
ATGCTTCA: -0.0973
ATAGTTAG: -0.026
AATGGGTG: -0.35
AGGGTGCC: -7e-05
ATTCGTTG: -0.196
CAGGTGCG: 0.102
CGTAGTAG: 0.0894
CTCTACAC: -0.139
CGTTGCGC: 0.37
CCAAAGGA: -0.295
CACTAGAA: -0.12
CTAACTTC: -0.118
CGTGGATA: 0.106
ATCGGGGA: -0.0441
CTTCAAAG: -0.241

Block 3
Target: PABPC1L2, full length, GST fusion (mouse, UniProt A0ABA7IW68)
Method: RNAcompete
Molecule type: RNA
Matrix: in vitro
Concentration: 20 nM
Notes: 7-mer, probes averaged, single round
Relative to: mean of 7-mers
Direction: higher = stronger binding
Quantity: 7-mer Z-score
Residues (chain): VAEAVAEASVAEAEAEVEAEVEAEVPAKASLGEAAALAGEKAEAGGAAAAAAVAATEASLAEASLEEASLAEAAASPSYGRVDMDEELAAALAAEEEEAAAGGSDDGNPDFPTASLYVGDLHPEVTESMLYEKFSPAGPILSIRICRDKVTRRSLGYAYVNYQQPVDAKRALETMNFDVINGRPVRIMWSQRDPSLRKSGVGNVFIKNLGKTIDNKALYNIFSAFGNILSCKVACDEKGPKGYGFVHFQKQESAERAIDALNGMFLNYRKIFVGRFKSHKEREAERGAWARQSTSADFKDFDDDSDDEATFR
CCCAGUU: -0.255
CUAUCAC: -0.204
GCUUUCC: -0.38
GUAUCUC: -0.251
GACUGGG: 0.18
GCUGCGA: -0.0591
GUGAUAA: 0.187
CACUUGG: 0.0968
GGGAGCA: 0.249
CGCAGUA: -0.222
ACCCUCC: -0.278
CCCCUGC: -0.452
AGAAUCG: -0.05
CGGUAUC: -0.148
ACACCAA: 0.169
CACAUAU: -0.237

Block 4
Target: Interferon regulatory factor 3, full length, phosphomimetic (IRF3, Homo sapiens, UniProt Q14653, residues 1-427, S386D/S396D/S398D/S402D/T404D/S405D)
Sequence of UniProt Q14653 (whole entry, unmodified, looked up): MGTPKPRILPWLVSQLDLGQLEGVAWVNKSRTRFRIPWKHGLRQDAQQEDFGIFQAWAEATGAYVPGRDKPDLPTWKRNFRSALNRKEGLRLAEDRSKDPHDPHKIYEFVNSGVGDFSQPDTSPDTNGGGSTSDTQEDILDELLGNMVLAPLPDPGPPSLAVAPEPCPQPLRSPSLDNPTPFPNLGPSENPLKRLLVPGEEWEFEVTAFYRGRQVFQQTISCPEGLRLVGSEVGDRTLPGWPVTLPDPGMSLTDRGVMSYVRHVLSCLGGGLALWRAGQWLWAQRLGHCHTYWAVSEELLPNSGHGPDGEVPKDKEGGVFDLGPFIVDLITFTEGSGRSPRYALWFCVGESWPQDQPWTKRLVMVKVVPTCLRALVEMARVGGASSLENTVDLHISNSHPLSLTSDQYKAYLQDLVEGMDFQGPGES
Method: protein-binding microarray
Molecule type: double-stranded DNA, one strand shown
Matrix: in vitro
Concentration: 2540 nM top
Notes: 60-bp whole probe
Together with: salmon DNA 0.4 mg/ml
Relative to: random background probes
Direction: higher = stronger binding
Quantity: fitted relative affinity
Shared flanks, not repeated: GCCTAGCAC … GTCTTGATTCGCTTGACGCTGCTG
CTAGAACTGAGTATCGATTAGTGCTAG: 0.332 z-score
TTAGGTTTCCTACTGCCTTAGTGCTAG: 4.85 z-score
TTAGGTTTCGGTTTGGGTTAGTGCTAG: 8.94 z-score
TTAGGACTGGACTGTCGGTTAGTGCTA: -0.682 z-score
GGTCTTCTGGGCTGTTTGGTTGTGCTA: -0.264 z-score
TTAAGACTGCTACTGCTTTAGTGCTAG: -0.751 z-score
GACGGTATCCACTTTCGGGACGTGCTA: 2.85 z-score
TTAGGGTCCCTTTTCCTTTAGTGCTAG: 4.52 z-score
TTAGACTTCAGACTGGATTAGTGCTAG: -0.417 z-score
TAAGGTATCGGTCTCGGTTAGTGCTAG: 4.53 z-score
GACGATTTCAGTCACGAGACGTGCTAG: 0.851 z-score
GTGATTTCAGTTTTCTTTTCGTGCTAG: 6.39 z-score
GACGATATCAGTCACGAGACGTGCTAG: 0.135 z-score
GAAAGAATCACAACTAGGAAGGTGCTA: 0.802 z-score
GACGGTATCGACTATCGGGGCGTGCTA: 0.345 z-score
TCATCTATGTCTGTTTTACTGTGCTAG: 0.91 z-score
GACGGTTACGACTATCGGGACGTGCTA: 0.224 z-score
GACGGTTTCCTACTGCTAACGTGCTAG: 5.06 z-score
TTAGACTTCGGGACTGGATTAGTGCTA: -0.565 z-score
GAAGAACTGGGGTTTCGAGACGTGCTA: 0.0531 z-score

Block 5
Target: ABI1, truncated, D143A, DHFR fusion (Arabidopsis thaliana)
Method: DHFR PCA, deep sequencing
Matrix: yeast
Notes: methotrexate growth selection, single substitutions
Together with: (+)-ABA 0.39 µM
Relative to: wild-type fitted maximum
Direction: higher = stronger binding
Quantity: relative binding score
Starting sequence: PYL1, truncated, DHFR fusion (Arabidopsis thaliana); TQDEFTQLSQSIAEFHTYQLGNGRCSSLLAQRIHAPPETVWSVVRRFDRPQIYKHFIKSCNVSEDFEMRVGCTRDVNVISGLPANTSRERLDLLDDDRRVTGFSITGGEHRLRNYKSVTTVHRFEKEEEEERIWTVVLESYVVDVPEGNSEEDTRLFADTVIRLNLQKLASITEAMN; partner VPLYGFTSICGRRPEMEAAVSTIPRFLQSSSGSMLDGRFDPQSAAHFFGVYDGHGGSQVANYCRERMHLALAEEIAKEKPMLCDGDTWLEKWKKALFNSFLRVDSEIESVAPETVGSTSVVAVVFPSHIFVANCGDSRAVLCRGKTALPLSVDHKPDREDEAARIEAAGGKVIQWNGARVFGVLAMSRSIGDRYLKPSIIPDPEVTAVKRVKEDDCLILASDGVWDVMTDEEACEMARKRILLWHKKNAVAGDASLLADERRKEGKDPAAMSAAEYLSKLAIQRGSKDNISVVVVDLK
G102S: 26.9%
E127F: 40.5%
I105H: -13.3%
V100I: 39.7%
E64L: 16.4%
T135A: -3.95%
K58T: 2.12%
N85P: -6.08%
K54G: -1.16%
N77M: 50.4%
I52R: 19.6%
F157I: -12.7%
I105A: -5.44%
D3R: 26%
S27H: 20.1%
E151L: 23.1%
G23Y: 1.46%
V78R: 28.4%
T135E: 0.316%
E129T: 47.4%
A30N: -0.194%
T120V: -11.7%
A13G: 24.4%
Q19L: 12%
N165W: 19.6%

Block 6
Target: Sal-like protein 4, full length isoform B (SALL4, Homo sapiens, UniProt Q9UJQ4-2, residues 1-616)
Method: universal PBM
Molecule type: double-stranded DNA, one strand shown
Matrix: in vitro
Concentration: not given
Notes: 8-mer, flanks averaged, mean of replicates
Direction: higher = stronger binding
Quantity: E-score
GCGTCCCC: -0.296
GACTATCC: -0.237
GCGCATCA: 0.0191
ATAAAAGG: 0.185
CGAGTTAG: -0.101
CGCATGCA: -0.0279
AAGCAACA: 0.0438
CCAATGAG: -0.154
TACCTCGA: 0.0617
ATCTGAAC: 0.0452
GCGCGAAC: -0.303
ACCGGTGC: -0.314
TTAATCAA: 0.37
AGCTCCCT: -0.191
CAACCGAC: 0.00709
CGCGTGCA: -0.0928
ATGAGTGC: 0.177
GCCTGTCC: -0.204
GAATCTCC: -0.119

Repeated from above (block 5):
I52R: 19.6%
E64L: 16.4%
T135E: 0.316%
E129T: 47.4%
N77M: 50.4%
E127F: 40.5%
K54G: -1.16%
E151L: 23.1%
A13G: 24.4%
Q19L: 12%
S27H: 20.1%
D3R: 26%
I105H: -13.3%
F157I: -12.7%
T135A: -3.95%
G23Y: 1.46%
N165W: 19.6%
A30N: -0.194%
